Published values from different studies.
Each line is one published result; not all experiments were run side by side. Several values in a cell are separate wells, animals, samples, runs or records. ± gives the spread as reported.
WD repeat-containing protein 91 WD40 domain, residues 392–747: WD repeat-containing protein 91, WD40 domain, residues 392–747 (Homo sapiens, UniProt A4D1P6)
Chain of UniProt A4D1P6 (whole entry, looked up): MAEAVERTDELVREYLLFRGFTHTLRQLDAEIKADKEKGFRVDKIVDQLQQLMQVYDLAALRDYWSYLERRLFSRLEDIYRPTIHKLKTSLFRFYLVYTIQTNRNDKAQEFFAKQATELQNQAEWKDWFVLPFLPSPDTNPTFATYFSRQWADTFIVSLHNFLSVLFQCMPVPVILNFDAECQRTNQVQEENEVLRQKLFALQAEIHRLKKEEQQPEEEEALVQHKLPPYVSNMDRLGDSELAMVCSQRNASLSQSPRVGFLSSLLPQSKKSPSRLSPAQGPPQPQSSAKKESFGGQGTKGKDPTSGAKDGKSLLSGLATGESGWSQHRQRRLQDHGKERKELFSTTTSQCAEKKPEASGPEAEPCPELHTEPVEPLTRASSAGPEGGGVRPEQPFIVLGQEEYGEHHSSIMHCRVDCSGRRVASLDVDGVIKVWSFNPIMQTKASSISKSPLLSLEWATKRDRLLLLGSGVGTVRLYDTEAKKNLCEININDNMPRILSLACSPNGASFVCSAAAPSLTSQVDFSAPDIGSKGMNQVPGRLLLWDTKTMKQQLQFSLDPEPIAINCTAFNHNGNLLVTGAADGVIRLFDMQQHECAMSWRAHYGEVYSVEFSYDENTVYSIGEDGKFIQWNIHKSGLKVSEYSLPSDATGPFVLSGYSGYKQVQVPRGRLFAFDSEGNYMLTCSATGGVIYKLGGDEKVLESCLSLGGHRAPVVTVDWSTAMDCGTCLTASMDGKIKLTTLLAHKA
Glutamate receptor 2: Glutamate receptor 2 (Homo sapiens, UniProt P42262)
Genome polyprotein NS3 helicase domain: Genome polyprotein, NS3 helicase domain (Hepatitis C virus genotype 1b, UniProt Q9WMX2)
ESR1: Estrogen receptor (ESR1, Homo sapiens, UniProt P03372)
Chain of UniProt Q16774 (whole entry, unmodified, looked up): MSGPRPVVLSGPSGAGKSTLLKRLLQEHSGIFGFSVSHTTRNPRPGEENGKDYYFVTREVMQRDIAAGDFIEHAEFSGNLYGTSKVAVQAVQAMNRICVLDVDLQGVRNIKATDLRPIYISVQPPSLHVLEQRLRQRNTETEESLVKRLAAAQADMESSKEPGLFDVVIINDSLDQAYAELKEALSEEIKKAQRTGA
Chain of UniProt P61204 (whole entry, looked up): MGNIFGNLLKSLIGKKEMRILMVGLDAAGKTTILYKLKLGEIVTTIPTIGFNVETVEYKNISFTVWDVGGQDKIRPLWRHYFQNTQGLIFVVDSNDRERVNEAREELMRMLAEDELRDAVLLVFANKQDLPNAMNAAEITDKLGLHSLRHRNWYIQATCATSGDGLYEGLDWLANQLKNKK
Chain of UniProt O76090 (whole entry, unmodified, looked up): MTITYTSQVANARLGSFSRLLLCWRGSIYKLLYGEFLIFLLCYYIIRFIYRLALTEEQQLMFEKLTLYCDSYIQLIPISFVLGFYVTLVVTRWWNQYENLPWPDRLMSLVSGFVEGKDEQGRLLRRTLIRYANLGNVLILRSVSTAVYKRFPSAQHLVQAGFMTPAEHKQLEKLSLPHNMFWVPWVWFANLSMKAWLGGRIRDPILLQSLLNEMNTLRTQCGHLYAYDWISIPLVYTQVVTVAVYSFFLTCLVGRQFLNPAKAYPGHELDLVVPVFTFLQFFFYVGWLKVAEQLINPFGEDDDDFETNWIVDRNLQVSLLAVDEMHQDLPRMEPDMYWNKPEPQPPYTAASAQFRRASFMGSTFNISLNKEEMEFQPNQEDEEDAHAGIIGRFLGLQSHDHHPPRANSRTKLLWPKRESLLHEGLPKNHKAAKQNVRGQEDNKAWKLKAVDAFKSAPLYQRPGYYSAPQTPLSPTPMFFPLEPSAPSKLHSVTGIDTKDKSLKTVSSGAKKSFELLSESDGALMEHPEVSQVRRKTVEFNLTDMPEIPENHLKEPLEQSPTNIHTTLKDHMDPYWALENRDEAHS
Chain of UniProt P02763 (whole entry, looked up): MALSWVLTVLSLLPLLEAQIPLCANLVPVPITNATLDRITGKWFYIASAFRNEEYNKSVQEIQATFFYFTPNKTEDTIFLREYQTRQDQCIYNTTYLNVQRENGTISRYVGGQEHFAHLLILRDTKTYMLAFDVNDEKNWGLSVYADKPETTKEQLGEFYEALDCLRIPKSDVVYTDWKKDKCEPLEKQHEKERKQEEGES

`COc1cc(/C=C2\CCC/C(=C\c3ccc(O)c(OC)c3)C2=O)ccc1O` gave a ΔG of -9.003 ± 0.0741 kcal/mol (haemin; binding, isothermal titration calorimetry; pH 7.4, 37 °C).
With `CC[C@@H]1[C@H](F)C(=O)N[C@@H]1COc1nccc2cc(C(N)=O)c(OC)cc12` the inhibition was -11.3% (EIF2AK4 (Homo sapiens, UniProt Q9P2K8); ATP-site probe binding, ActivX profiling, measured: GCN2; THP-1 cell lysate; 0.04 mM, Lys1 site).
The SPR response of `COc1c(C#N)cccc1CC(=O)Nc1ccc2c(c1)CCCN2C(=O)c1ccccc1` is reported as 52.1 RU and 55.7 RU (WD repeat-containing protein 91 WD40 domain, residues 392–747; binding, SPR single-concentration screen; 45 µM).
Under “ATP hydrolysis rate”, `O=c1nc(SCc2cc(F)cc(C(F)(F)F)c2)nc(SCc2ccc3sccc3c2)[nH]1` is recorded as 0.29 µM/min and 0.218 µM/min (TOP2A (Homo sapiens, UniProt P11388); ATPase activity; 15.6 µM, added: ATP 0.075 mM).
`N#Cc1cccc2c1CC[C@H]2NC(=O)c1ccc(CNc2cccc3c2CCCC3)cc1` gave an SPR response of 3.8 RU and -3.3 RU (WD repeat-containing protein 91 WD40 domain, residues 392–747; binding, SPR single-concentration screen; 45 µM).
With `CC[C@H](C)[C@H](NC(=O)[C@H](CCCCN)NC(=O)CNC(=O)[C@@H](NC(=O)[C@@H](NC(=O)[C@H](CCSC)NC(=O)[C@H](Cc1c[nH]cn1)NC(=O)CN)[C@@H](C)O)C(C)C)C(=O)N[C@@H](Cc1ccc(O)cc1)C(=O)N[C@@H](C)C(=O)N[C@@H](C)C(=O)N[C@@H](CCSC)C(=O)N[C@@H](CCSC)C(=O)N[C@H](C(=O)N[C@@H](CCSC)C(=O)N[C@@H](CCC(=O)O)C(=O)N[C@@H](Cc1ccc(O)cc1)C(=O)N[C@@H](Cc1ccc(O)cc1)C(=O)N[C@@H](CCCNC(=N)N)C(=O)N[C@@H](CCC(N)=O)C(=O)N[C@@H](CO)C(=O)N[C@@H](CCCCN)C(=O)N[C@@H](C)C(=O)N[C@@H](CCCCN)C(=O)N[C@@H](CCCCN)C(=O)N[C@@H](CC(C)C)C(=O)N[C@@H](CCC(N)=O)C(=O)N[C@@H](C)C(=O)N[C@@H](CCSC)C(=O)N[C@@H](CCCNC(=N)N)C(=O)O)[C@@H](C)CC` the stoichiometry was 0.92 ± 0.1 (Calmodulin-1, Ca2+-bound C-lobe (CALM1, Homo sapiens, UniProt P0DP23); binding, isothermal titration calorimetry; pH 7.4, 15 °C, Ca2+-bound C-lobe, added: CaV2.1 IQ peptide).
For `O=C1NC(=O)C(c2ccccc2)(c2ccccc2)N1`, the potentiation was 91% (Glutamate receptor 2; ion current, positive allosteric modulator, SyncroPatch patch clamp; HEK293; 10 µM).
`CCS(=O)(=O)N1CC(CC#N)(n2cc(-c3ncnc4[nH]ccc34)cn2)C1` — result for “bimolecular quenching constant”: 5.55e+12 ± 5.1e+11 M⁻¹ s⁻¹ (ORM1 (Homo sapiens, UniProt P02763); fluorescence quenching; 298 K).
`Nc1nc(Cl)nc2c1ncn2[C@@H]1O[C@H](CO)[C@@H](O)[C@H]1O` has an inhibition of 0% (Genome polyprotein NS3 helicase domain; DNA binding, inhibitor; hepatitis C virus; 100 µM, added: Cy5-dT15 DNA).
For `CC[C@H](C)[C@H](NC(=O)[C@H](CCCCN)NC(=O)CNC(=O)[C@@H](NC(=O)[C@@H](NC(=O)[C@H](CCSC)NC(=O)[C@H](Cc1c[nH]cn1)NC(=O)CN)[C@@H](C)O)C(C)C)C(=O)N[C@@H](Cc1ccc(O)cc1)C(=O)N[C@@H](C)C(=O)N[C@@H](C)C(=O)N[C@@H](CCSC)C(=O)N[C@@H](CCSC)C(=O)N[C@H](C(=O)N[C@@H](CCSC)C(=O)N[C@@H](CCC(=O)O)C(=O)N[C@@H](Cc1ccc(O)cc1)C(=O)N[C@@H](C)C(=O)N[C@@H](CCCNC(=N)N)C(=O)N[C@@H](CCC(N)=O)C(=O)N[C@@H](CO)C(=O)N[C@@H](CCCCN)C(=O)N[C@@H](C)C(=O)N[C@@H](CCCCN)C(=O)N[C@@H](CCCCN)C(=O)N[C@@H](CC(C)C)C(=O)N[C@@H](CCC(N)=O)C(=O)N[C@@H](C)C(=O)N[C@@H](CCSC)C(=O)N[C@@H](CCCNC(=N)N)C(=O)O)[C@@H](C)CC`, the stoichiometry was 0.88 ± 0.09 (Calmodulin-1, Ca2+-bound N-lobe (CALM1, Homo sapiens, UniProt P0DP23); binding, isothermal titration calorimetry; pH 7.4, 15 °C, N-lobe, CaV2.1 IQ domain, added: Ca2+).
`COc1ccc(-c2cc(=O)c3c(O)cc(O)cc3o2)cc1` gave a selectivity ratio of 5.9 (ESR1; array formation; PRL-HeLa; relative to: EC50 ERβ over EC50 ERα).
The fold enrichment of `CCCCC[S+]([O-])c1n[nH]c(N)n1` (centres unmarked) is reported as 0.874 (SPRY domain-containing SOCS box protein 2, SPRY domain (Homo sapiens, UniProt Q99619); binding, affinity selection mass spectrometry; relative to: other proteins in batch).
With `Oc1ccc(O)cc1` the inhibition was 0% (Genome polyprotein NS3 helicase domain; 100 µM).
For `CCCCCCCC(=O)c1cc(OC)c(OC)c(OC)c1CC(=O)OCC`, the activation was 0.65 fold (RORC (Homo sapiens, UniProt P51449); reporter gene, Gal4 hybrid reporter; 10 µM; relative to: vehicle).
`O=C(Nc1ccc(F)cc1)Nc1cccc2c1CCN(C(=O)c1cc3cccn3cn1)C2` gave an SPR response of -5.6 RU and -19 RU (WD repeat-containing protein 91 WD40 domain, residues 392–747; binding, SPR single-concentration screen; 45 µM).
Under “ΔG of binding”, `Nc1nc2c(ncn2[C@@H]2O[C@H](COP(=O)(O)O)[C@@H](O)[C@H]2O)c(=O)[nH]1` is recorded as -6.21 kcal/mol and -6.14 kcal/mol and -6.08 kcal/mol (GUK1 (Homo sapiens, UniProt Q16774); ITC; concentration not given, added: 150 mM NaCl).
With `Nc1ncnc2c1ncn2[C@@H]1O[C@H](COP(=O)(O)OP(=O)(O)OP(=O)(O)O)[C@@H](O)[C@H]1O` the normalized current was 0.0182 and 0.0162 and 0.0234 (P2X purinoceptor 7 (P2rx7, Rattus norvegicus, UniProt Q64663, I214A/Q143A/R125A); ion current, agonist, two-electrode voltage clamp; Xenopus oocytes; 33.3 µM).
`CCN(CC)Cc1cn(Cc2ccc(C(=O)N[C@@H]3CCc4c(C#N)cccc43)cc2)nn1` has an SPR response of 49.2 RU and 51.7 RU (WD repeat-containing protein 91 WD40 domain, residues 392–747; binding, SPR single-concentration screen; 45 µM).
For `O=C(O)CCCCCCCC(=O)O`, the inhibition was 0% (Genome polyprotein NS3 helicase domain; DNA binding, inhibitor; hepatitis C virus; 100 µM, added: Cy5-dT15 DNA).
`Cn1c(=O)c2[nH]cnc2n(C)c1=O` gave an inhibition of 0% (Glutamate receptor 2; ion current, negative allosteric modulator, SyncroPatch patch clamp; HEK293; 30 µM).
`CCN(CC)CCOc1ccc2c(c1)C(=O)c1cc(OCCN(CC)CC)ccc1-2` gave a curve bottom of -7 % inhibition (ACHE (Homo sapiens, UniProt P22303); enzyme activity).
With `Nc1ccc(C(=O)O)cc1` the current density was 34.4 pA/pF and 47.7 pA/pF and 28.6 pA/pF and 26.2 pA/pF and 13.4 pA/pF (BEST1, with wild-type BEST1 (Homo sapiens, UniProt O76090, A10T); whole-cell patch clamp; HEK293 co-expressing WT and A10T mutant; concentration not given, membrane potential 80 mV).
`O=C(COP(=O)(O)O)[C@@H](O)[C@H](O)[C@H](O)COP(=O)(O)O` — result for “thermal stability ratio”: 0.6 and 0.519 (ADP-ribosylation factor 3 (ARF3, Homo sapiens, UniProt P61204); thermal proteome profiling, measured: ARF3; HepG2 cell lysate; concentration not given, 57 over 37 °C; relative to: compound over control).
With `COc1ccc(F)cc1C(=O)NCc1ccc(-c2nn([C@@H](C)C(F)(F)F)c(N)c2C(N)=O)cc1` the remaining activity was 78.7 ± 11.7% (FGFR2 (Homo sapiens, UniProt P21802); kinase activity, inhibitor, HotSpot radiometric; 1000 nM, added: ATP at Km).
The remaining binding of `C=CC(=O)N1CCC(COCC(=O)N2CCN(c3nc(-c4cnc(N)nc4C(F)F)nc(N4CCOC[C@@H]4C)n3)CC2)CC1` is reported as 100% (CDC42BPA (Homo sapiens, UniProt Q5VT25); KINOMEscan; 1 µM).
The remaining activity of `O=C(O)c1ccc(Nc2ncc3c(n2)-c2ccc(Cl)cc2C(c2c(F)cccc2F)=NC3)cc1` is reported as 83% (CHK2(h); kinase activity; 1 µM).
`Nc1ncnc2c(CN3CC(CSc4ccc(Cl)cc4)[C@H](O)C3)c[nH]c12` (some centres unmarked) has a k4 of 0.23 min⁻¹ (Aminodeoxyfutalosine nucleosidase (Helicobacter pylori, UniProt Q9ZMY2); radiolabel chase ultrafiltration; pH 7.4, inhibitor off-rate).
For `CC(=O)NCCc1c[nH]c2ccc(O)cc12`, the inhibition was 0% (Genome polyprotein NS3 helicase domain; DNA binding, inhibitor; hepatitis C virus; 100 µM, added: Cy5-dT15 DNA).
The SPR response of `CN1C(=O)C(c2c(-c3ccc(Cl)cc3)[nH]c3c2c(=O)[nH]c(=O)n3C)c2ccccc21` (centres unmarked) is reported as 16.2 RU (WD repeat-containing protein 91 (Homo sapiens, UniProt A4D1P6); binding, SPR steady state; 1.875 µM).
With `COC1=C(OC)C(=O)C(CC=C(C)C)=C(C)C1=O` the Km was 16.2 ± 4.23 µM (FSP1 L323A mutant; substrate; added: 100 µM co-substrate).
`O=C(O)C1CCCNC1` (centres unmarked) — result for “normalised MST signal”: 0.882 (SLC6A6 (Homo sapiens, UniProt P31641, Y138A); binding, microscale thermophoresis; 1 mM, room temperature, added: 50 nM labelled protein; higher = more binding).
The displacement of `C=C1[C@@H]2CC[C@@H](C2)[C@@]1(C)CC/C=C(/C)CO` is reported as under 16% (CNR1 (Homo sapiens, UniProt P21554); radioligand binding; 10 µM).
`CC(=O)N[C@H](C(=O)N[C@@H](CC(N)=O)C(=O)N[C@@H](CCCCN)C(=O)N1CCC[C@H]1C(=O)N[C@@H](CC(C)C)C(=O)N1CCC[C@H]1C(=O)N1CCC[C@H]1C(=O)N[C@@H](CC(C)C)C(=O)N1CCC[C@H]1C(=O)N[C@H](C(=O)N[C@@H](C)C(N)=O)C(C)C)C(C)C` has a peak area of 76 ± 4% (Tyrosine-protein kinase Fyn, SH3 domain (FYN, Homo sapiens, UniProt P06241); ligand binding, FTIR spectroscopy, measured: asymmetric stretch band B; pH 7.0, FYN complex, added: 4 mM peptide).
For `Cl.Fc1ccc(CN(C2=NCCN2)c2c(Cl)cccc2Cl)cc1`, the inhibition was 1% (Genome polyprotein NS3 helicase domain; DNA binding, inhibitor; hepatitis C virus; 100 µM, added: Cy5-dT15 DNA).
`CC(=C/C(=O)O)/C=C/C=C(\C)C1C=C2C(C)(C)CCCC2(C)O1` (centres unmarked) — result for “plasma membrane localization”: 0.51 (Rhodopsin (RHO, Homo sapiens, UniProt P08100, P23H); immunostaining, measured: opsin; COS-7 transfected; 5.00 µM, unit not given; relative to: surface over total stained cells).
`Nc1ccn([C@H]2CC[C@@H](CO)O2)c(=O)n1` has an inhibition of 0% (Genome polyprotein NS3 helicase domain; DNA binding, inhibitor; hepatitis C virus; 100 µM, added: Cy5-dT15 DNA).
`COc1c(O[C@@H]2O[C@H](CO)[C@@H](O)[C@H](O)[C@H]2O)cc2occ(-c3ccc(O)cc3)c(=O)c2c1O` has a selectivity ratio of 28.4 (ESR1; array formation; PRL-HeLa; relative to: EC50 ERβ over EC50 ERα).
`Cc1ccc([N+](=O)[O-])cc1S(=O)(=O)N(C)C` gave an inhibition of 0% (Genome polyprotein NS3 helicase domain; DNA binding, inhibitor; hepatitis C virus; 100 µM, added: Cy5-dT15 DNA).
For `CCOc1ccc(NC(=O)O[C@@H](Cn2nc(C(C)C)cc2C(C)C)C(C)C)cc1`, “increase in ACh efficacy” read about 5 fold (Neuronal acetylcholine receptor; alpha4/beta2 (Homo sapiens, UniProt P17787+P43681); two-electrode voltage clamp; Xenopus oocytes; 1 µM, low-sensitivity stoichiometry).
For `N=C(N)NCCC[C@H](N)C(=O)O`, the product formation was 1.14 µM (N-alpha-acetyltransferase 80 (NAA80, Homo sapiens, UniProt Q93015); substrate, DTNB; 2 mM, 30 min, 37 °C, added: acetyl-CoA 500 µM).
For `COc1cc(CC(=O)O)ccc1O`, the inhibition was 1% (Genome polyprotein NS3 helicase domain; DNA binding, inhibitor; hepatitis C virus; 100 µM, added: Cy5-dT15 DNA).
